Measurements pooled from the literature.
Numbered parts are unrelated; each lists some results of a single study. Positions count from the first letter of the parent shown.

Study 1 — technique: RNA Bind-n-Seq; form: RNA; sample: in vitro; concentration: not given; reference: input RNA pool; direction: higher = stronger binding
Target: RING finger protein unkempt homolog, zinc fingers 1-6, GST-SBP tag (UNK, Homo sapiens, UniProt Q9C0B0, residues 30-357)
UniProt Q9C0B0, sequence (30-357, looked up): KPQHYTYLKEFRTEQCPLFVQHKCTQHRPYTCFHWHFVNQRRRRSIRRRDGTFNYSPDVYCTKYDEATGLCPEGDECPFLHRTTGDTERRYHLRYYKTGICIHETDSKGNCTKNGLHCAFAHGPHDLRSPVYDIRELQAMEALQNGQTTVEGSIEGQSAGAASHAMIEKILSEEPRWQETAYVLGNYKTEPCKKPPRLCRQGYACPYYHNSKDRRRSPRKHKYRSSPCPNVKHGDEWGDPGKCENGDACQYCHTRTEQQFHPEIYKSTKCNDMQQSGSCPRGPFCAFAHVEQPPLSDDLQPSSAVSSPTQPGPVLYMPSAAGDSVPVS
Setting: RNA with constant flanks, human and mouse sites, ends assumed
All sequences stand within: GGGAGUUCUACAGUCCGACGAUC … CAACAGAGGAUUGAGCAUCA
Strand | bound/input enrichment
UGAUUAUUCACUUUAGAUGCUGAUUCUUUUUUUUUUUUUUUUUUGUAUUUUUAAUGGGGGUAGCAGCUGGACCCUUGACCUUCUCAUGCCCACACCCACCCUGCCCUUCCCAUGGCUGCC | 3.15 ratio
GCCUGAGGAACCAGCCAUGUCUCUGCUGCCCCUUCAGUGAUGCCAACCUUGGGAGAUGCCCUCAUCCUGUACCUGCAUCUGGUCCUGGGGGUGGCAGGAGUCCUCCAGCCACCAGGCCCC | 0.249 ratio
GAAGUGGUGAACCGACCUCCAACUCCUCCCCCACCAUACAGUGCCUUCCAGCUACAGCAGCAGCAGCUGCUGCCUCCACAGUGUGGCCCUGCAGGUGGCAGUCCCCCGGGCAUCGAUCCC | 0.0719 ratio
CCGAUGGUUCUUUCUUUUGCUCAGUGGAGUUGGAGGUUUUGUGUUUGGUUUUCUCAUUCUUGUCUUGUUUUGUGUGGGUGGAUUUUCACCGACCAAUGAUAUCCUCUUCUGACGGUCACC | 0.313 ratio
GUAUUGGUGAACAACGUGUUUUAUUUCACACAACGCGUAGUGGACAAGCUUUGGCAAGGCAUGUUCAACAAAGAAUCUAAACUUCUUAUAGAUUUUAUCAUUCAACUCAUUGCACAGUCG | 0.575 ratio
GAUACUGAAUGGUCUUCUCGACCAUCGGAAGUUAGUGAAGCUUUAUUCCAGGCUACUGCAGAAGUAGCUUCAGACUUAGCAAGCAGUCGCUUUAGUGUAUCUCAGCACCCGCUUAUAGGC | 0.398 ratio
GAGUCUGACUCUUAACCCUUUUGAGAAUUGCUCUGAAUUUUGUUCUCAGGCAUUAUACAGUUAGUAAUUAAACUUUAAAUGCCAUUACUACUUGUUUUUUCAUAUCCCAAGAAUAAGAAC | 0.228 ratio

Study 2 — technique: protein-binding microarray; form: double-stranded DNA, one strand shown; sample: in vitro; concentration: 0.8 µM; setting: whole 60-bp probe, no competitor; direction: higher = stronger binding; all sequences stand within: … GTCTTGATTCGCTTGACGCTGCTG
Target: Centromere-binding protein 1, full length, N-terminal tag (CBF1, Saccharomyces cerevisiae, UniProt P17106, residues 1-351)
UniProt P17106, sequence (whole entry, looked up): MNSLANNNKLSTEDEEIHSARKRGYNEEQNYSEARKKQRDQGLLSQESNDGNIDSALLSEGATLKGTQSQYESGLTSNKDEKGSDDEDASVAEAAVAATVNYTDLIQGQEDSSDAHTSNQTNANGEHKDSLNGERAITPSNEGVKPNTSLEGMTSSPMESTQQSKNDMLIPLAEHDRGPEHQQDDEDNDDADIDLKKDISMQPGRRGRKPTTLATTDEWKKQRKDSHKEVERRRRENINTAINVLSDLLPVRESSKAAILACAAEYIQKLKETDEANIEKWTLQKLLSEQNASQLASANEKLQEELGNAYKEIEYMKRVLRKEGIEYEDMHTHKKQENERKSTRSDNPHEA
Strand | fluorescence intensity [a.u.]
CTACGGGTTATAATGCACGTGATATGCACGTGGTTC | 25600
CTACAAGATGCCCATCACCAAAAAATAAAAAAATTC | 513
CTAAAGACATCTTATCTGCTGATTATACAGATATTC | 555
GAAAGCCTCGCTTCACGTGTAACATACACAGTTTAG | 1930
GAAATAATGTCAGGTGGCGTGAACGGTACATGGTAG | 2820
GAAGGTTCTCTGGAACAGCTGATGAAGCAGGTGTAG | 674
CCTAACTACTATAGTCACCAAGGATAGCTTCGTACA | 524
CTACCCTTAATATGTCATGAGAATAAAATATTATTC | 620
GAACTTCGCATTAAGCGCGTGAAACTATTGGCATAG | 564
GAAGGGATTCCCCCTCCCGTGTCTTTTTATAAATAG | 577

Study 3 — technique: RNA Bind-n-Seq; form: RNA; sample: in vitro; concentration: 20 nM; setting: 6-mer, flanks averaged, single round; with: 150 mM LiCl; reference: input library; direction: higher = stronger binding
Target: TAR DNA-binding protein 43, full length, His tag (TARDBP, Homo sapiens, UniProt Q13148, residues 1-414)
Strand | 6-mer enrichment (R)
GAACAG | 0.9
UGUAUU | 1.17
AGCUGC | 0.917
GGCGCU | 0.982
CGAGUA | 0.933
GAGUAA | 0.959
ACAAAA | 0.849
UGCAGA | 0.912
GGCACA | 0.959
UAUCCG | 0.847
UGUCAC | 0.907

Study 4 — technique: universal PBM; form: double-stranded DNA, one strand shown; sample: in vitro; concentration: 600 nM; direction: higher = stronger binding
Target: Sal-like protein 4, full length isoform A (SALL4, Homo sapiens, UniProt Q9UJQ4, residues 1-1053)
UniProt Q9UJQ4, sequence (whole entry, looked up): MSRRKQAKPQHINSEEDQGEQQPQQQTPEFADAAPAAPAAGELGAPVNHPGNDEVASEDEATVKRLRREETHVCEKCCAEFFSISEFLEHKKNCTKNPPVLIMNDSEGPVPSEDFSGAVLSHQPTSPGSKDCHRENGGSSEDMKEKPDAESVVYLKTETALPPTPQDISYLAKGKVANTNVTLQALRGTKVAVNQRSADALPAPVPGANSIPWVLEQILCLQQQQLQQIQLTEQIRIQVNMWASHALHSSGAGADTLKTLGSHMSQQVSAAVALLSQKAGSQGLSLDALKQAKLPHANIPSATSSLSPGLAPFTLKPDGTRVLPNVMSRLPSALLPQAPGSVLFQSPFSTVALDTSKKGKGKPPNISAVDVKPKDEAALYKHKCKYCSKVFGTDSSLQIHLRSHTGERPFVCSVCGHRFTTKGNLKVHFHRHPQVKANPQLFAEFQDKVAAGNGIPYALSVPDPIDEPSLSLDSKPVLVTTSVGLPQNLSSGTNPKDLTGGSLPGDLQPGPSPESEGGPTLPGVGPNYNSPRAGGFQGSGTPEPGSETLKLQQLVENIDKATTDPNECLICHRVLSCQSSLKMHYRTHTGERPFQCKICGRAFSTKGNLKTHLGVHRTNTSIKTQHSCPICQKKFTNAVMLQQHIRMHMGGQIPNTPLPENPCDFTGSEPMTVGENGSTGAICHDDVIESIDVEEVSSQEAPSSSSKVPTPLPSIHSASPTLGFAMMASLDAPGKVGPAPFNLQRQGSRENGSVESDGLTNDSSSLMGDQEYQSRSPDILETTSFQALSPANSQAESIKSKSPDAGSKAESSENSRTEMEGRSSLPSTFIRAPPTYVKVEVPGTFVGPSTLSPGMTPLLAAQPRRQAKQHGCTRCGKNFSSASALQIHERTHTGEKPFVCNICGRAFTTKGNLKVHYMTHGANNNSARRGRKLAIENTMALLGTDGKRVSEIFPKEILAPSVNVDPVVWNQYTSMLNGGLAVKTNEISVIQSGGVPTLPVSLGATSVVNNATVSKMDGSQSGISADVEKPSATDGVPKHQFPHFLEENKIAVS
Setting: 8-mer, flanks averaged, mean of replicates
Strand | E-score
CCATCTAA | 0.00133
CCAGCTAG | -0.136
CAAATGTC | 0.0284
GAATTGGC | -0.0584
TAACGCCA | 0.036
GACCTCAC | -0.23
GTGGAGTA | 0.0857
ACGCCAAC | 0.0222
GGTCCATA | 0.0171
AGATCACG | -0.0796
TACGGCTA | -0.064
GGGATCTA | -0.127
AATTTCGG | 0.101
GGAGATTA | 0.0969
AAGGATAC | -0.117
GGGCTACA | -0.191
TCAAAGGA | 0.1

Study 5 — technique: protein binding microarray; form: double-stranded DNA, one strand shown; sample: in vitro; concentration: not given; reference: not given; direction: higher = stronger binding
Target: Histone acetyltransferase KAT6A, winged helix 2, GST fusion (KAT6A, Homo sapiens, UniProt Q92794, residues 85-181)
Setting: 8-mer, flanks averaged, mean of 2 arrays, mostly near background
Target sequence (chain): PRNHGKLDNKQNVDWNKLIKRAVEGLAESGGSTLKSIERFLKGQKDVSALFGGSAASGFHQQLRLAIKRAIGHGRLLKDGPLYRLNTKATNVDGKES
Strand | E-score
AAGCCGTC | 0.156
CTACCTGC | -0.012
AGCGACGC | 0.11
GAGCGGTA | -0.0607
ATCGAAAT | -0.0773
CGAGAGAC | -0.152
AACTGGGG | 0.0612
CCATAACG | -0.0944
AAAATCTA | 0.128
ATCCCGGC | 0.138
CCATGGGG | 0.117
ATTCACCC | -0.0721
TCTAGGCA | -0.0694
CAACGGAC | 0.145
GTAAAAAC | -0.0394

Study 6 — technique: DHFR PCA, deep sequencing; sample: yeast; with: (+)-ABA 2500 µM; reference: wild-type fitted maximum; direction: higher = stronger binding
Target: ABI1, truncated, D143A, DHFR fusion (Arabidopsis thaliana)
Setting: methotrexate growth selection, single substitutions
Starting sequence: PYL1, truncated, DHFR fusion (Arabidopsis thaliana); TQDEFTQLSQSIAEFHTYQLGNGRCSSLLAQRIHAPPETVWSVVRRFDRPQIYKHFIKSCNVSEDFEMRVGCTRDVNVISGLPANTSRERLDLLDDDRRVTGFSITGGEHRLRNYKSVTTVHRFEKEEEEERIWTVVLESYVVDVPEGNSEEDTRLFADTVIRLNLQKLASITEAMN
Variant | relative binding score [%]
S11M | 97.7
G148K | 87.5
V137F | 12.1
V40S | 37.8
I162R | 36.4
E89D | 89.9
F66S | 96
A35K | 74
R46I | 91.6

Study 7 — technique: protein-binding microarray; form: double-stranded DNA, one strand shown; sample: in vitro; concentration: 2200 nM top; setting: 60-bp whole probe; with: salmon DNA 0.4 mg/ml; reference: random background probes; direction: higher = stronger binding; all sequences stand within: GCCTAGCAC … GTCTTGATTCGCTTGACGCTGCTG
Target: Interferon regulatory factor 7, full length, phosphomimetic (IRF7, Homo sapiens, UniProt Q92985, residues 1-503, S471D/S472D/S475D/S476D/S477D/S483D/S484D/S487D)
UniProt Q92985, sequence (whole entry, unmodified, looked up): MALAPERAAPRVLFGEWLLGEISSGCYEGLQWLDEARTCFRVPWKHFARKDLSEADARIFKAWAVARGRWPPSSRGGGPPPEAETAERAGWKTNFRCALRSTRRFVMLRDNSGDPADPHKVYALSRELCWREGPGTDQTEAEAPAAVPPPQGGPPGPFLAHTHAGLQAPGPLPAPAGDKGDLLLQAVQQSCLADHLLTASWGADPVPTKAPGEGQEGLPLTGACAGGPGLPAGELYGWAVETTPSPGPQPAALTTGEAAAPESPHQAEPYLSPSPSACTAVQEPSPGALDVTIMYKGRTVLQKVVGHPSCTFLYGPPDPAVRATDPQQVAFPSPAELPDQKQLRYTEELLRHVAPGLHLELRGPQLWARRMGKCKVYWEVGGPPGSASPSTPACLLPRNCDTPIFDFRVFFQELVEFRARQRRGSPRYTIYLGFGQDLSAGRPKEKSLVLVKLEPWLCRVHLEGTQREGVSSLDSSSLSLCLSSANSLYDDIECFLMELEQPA
Strand | fitted relative affinity [z-score]
GACGGTTTCCTTTTCCTGGCGTGCTAG | 6.02
GACGGTCTAGGTTTCGGGACGTGCTAG | 2.22
GACGGTCTCCTTATCCTAACGTGCTAG | 1.15
CTCATTCTCCACTTGTGTTTGTGCTAG | 2.58
TTAGGTTTCGCTCTCGGTTAGTGCTAG | 5.52
GACGGAATCCTTATCCTGACGTGCTAG | 0.695
GACGGTTACCTTTTCCTGACGTGCTAG | 1.49
GCCGGACTGGGGTATCGGGACGTGCTA | -1.12
TTAGAACTTAGACTGGATTAGTGCTAG | -0.666
GACGGAATCCTACTGCTGACGTGCTAG | 0.327
TTAGGTTTCCACTATCGGTTAGTGCTA | 1.8
CCGGGGGGCACAGGGTGAGGGTGCTAG | 1.27
GACTGTATCGGGTTTCGGGACGTGCTA | 1.75
GACAATCTCAGTATCGAGACGTGCTAG | 0.047

Other studies, line by line
Sequence | target | assay | system | setting | how to read | quantity | result
GAPLKKLFTSTGL | human cyclin B2 | peptide binding, yeast competitive growth sequencing | peptide, Saccharomyces cerevisiae, cyclin B2-Cln2 fusion | concentration not given, combined libraries | direction not given | binding enrichment score | 0.371

Excerpt of the above (study 7):
Strand | fitted relative affinity [z-score]
GACGGTCTAGGTTTCGGGACGTGCTAG | 2.22
GACGGTCTCCTTATCCTAACGTGCTAG | 1.15
CTCATTCTCCACTTGTGTTTGTGCTAG | 2.58
TTAGGTTTCGCTCTCGGTTAGTGCTAG | 5.52
GACGGAATCCTTATCCTGACGTGCTAG | 0.695
GACGGTTACCTTTTCCTGACGTGCTAG | 1.49
GCCGGACTGGGGTATCGGGACGTGCTA | -1.12
TTAGAACTTAGACTGGATTAGTGCTAG | -0.666
GACGGAATCCTACTGCTGACGTGCTAG | 0.327
TTAGGTTTCCACTATCGGTTAGTGCTA | 1.8
CCGGGGGGCACAGGGTGAGGGTGCTAG | 1.27
GACTGTATCGGGTTTCGGGACGTGCTA | 1.75
GACAATCTCAGTATCGAGACGTGCTAG | 0.047
